# Measured values pooled from the literature.
# Each line is one published result; not all experiments were run side by side. ± marks the error that the study gave.
# MAPK14: Mitogen-activated protein kinase 14 (MAPK14, Homo sapiens, UniProt Q16539)
# Chain of UniProt Q16539 (whole entry, looked up): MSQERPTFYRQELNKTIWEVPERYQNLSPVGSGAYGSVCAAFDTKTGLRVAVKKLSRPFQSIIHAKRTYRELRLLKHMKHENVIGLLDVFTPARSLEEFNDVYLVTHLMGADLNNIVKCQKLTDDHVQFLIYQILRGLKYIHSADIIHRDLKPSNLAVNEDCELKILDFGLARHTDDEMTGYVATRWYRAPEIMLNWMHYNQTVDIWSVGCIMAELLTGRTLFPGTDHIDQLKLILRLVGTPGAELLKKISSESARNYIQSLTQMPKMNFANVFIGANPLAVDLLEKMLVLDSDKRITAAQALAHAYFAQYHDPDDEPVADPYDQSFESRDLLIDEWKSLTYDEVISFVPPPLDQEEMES
# T1: RNA aptamer; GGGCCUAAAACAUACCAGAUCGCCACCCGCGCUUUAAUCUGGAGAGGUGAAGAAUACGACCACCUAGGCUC
# T2: RNA aptamer; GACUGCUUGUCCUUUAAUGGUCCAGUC
# Chain of UniProt P08246 (whole entry, looked up): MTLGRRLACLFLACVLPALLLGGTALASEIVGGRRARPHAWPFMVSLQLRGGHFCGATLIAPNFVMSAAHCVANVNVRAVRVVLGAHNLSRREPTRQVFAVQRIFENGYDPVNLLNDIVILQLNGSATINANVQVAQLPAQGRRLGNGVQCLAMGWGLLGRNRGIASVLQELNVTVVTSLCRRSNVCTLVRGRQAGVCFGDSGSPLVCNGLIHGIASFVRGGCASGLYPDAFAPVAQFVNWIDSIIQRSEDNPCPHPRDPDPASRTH
# Chain of UniProt P11309 (whole entry, looked up): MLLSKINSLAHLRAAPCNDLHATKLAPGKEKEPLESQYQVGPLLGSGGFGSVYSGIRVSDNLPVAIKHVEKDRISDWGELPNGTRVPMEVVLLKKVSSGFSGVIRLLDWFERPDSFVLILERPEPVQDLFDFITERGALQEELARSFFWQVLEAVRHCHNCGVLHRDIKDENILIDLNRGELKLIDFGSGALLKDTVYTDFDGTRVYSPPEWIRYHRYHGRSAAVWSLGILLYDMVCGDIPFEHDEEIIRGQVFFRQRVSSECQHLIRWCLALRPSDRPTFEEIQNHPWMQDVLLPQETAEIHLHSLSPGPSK
# Chain of UniProt Q03431 (whole entry, looked up): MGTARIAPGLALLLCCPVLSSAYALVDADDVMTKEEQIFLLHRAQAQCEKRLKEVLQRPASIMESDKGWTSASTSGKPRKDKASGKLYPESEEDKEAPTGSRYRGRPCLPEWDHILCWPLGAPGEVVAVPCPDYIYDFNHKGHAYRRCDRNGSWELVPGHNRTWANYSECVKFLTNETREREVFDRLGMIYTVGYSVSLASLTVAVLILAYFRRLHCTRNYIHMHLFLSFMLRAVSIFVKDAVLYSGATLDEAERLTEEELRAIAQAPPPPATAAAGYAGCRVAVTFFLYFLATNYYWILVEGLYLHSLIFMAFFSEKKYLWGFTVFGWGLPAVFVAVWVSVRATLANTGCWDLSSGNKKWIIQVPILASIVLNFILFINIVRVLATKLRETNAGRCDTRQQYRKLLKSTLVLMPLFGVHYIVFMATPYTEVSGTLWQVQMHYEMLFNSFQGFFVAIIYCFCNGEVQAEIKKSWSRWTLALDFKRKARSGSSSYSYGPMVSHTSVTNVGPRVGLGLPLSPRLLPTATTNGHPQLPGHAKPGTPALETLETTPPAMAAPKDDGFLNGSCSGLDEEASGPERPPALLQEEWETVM
# Chain of UniProt P23141 (whole entry, looked up): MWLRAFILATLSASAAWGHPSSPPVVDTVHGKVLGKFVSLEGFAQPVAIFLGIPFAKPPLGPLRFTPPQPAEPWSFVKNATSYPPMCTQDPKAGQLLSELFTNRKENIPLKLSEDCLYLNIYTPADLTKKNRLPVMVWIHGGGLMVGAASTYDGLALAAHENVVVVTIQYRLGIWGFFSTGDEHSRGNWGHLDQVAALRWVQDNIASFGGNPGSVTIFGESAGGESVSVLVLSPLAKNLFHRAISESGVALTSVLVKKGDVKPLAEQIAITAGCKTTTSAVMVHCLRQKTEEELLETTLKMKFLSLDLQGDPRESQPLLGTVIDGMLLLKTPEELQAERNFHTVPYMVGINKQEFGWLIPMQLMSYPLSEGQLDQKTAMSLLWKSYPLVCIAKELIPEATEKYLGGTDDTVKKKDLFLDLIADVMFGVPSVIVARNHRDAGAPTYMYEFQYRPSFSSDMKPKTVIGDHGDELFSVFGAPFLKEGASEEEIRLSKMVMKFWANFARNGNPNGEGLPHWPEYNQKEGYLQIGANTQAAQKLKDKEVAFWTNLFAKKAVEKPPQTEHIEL
Structure (SMILES),target,assay,test system,conditions,how to read,quantity,result
CN(C)[C@@H]1C(=O)C(C(N)=O)=C(O)[C@@]2(O)C(=O)C3=C(O)c4c(O)cccc4[C@@](C)(O)[C@H]3[C@H](O)[C@@H]12,"T1, RNA aptamer",fluorescence titration,,"pH 7.5, 25 °C, MgCl2 10 mM",,Kd,1.78 nM
CC(=O)NCCN(CC(=O)NCCN(CC(=O)NCCN(CC(=O)NCCC(N)=O)C(=O)C[C@@H](N)CCCNC(=N)N)C(=O)C[C@@H](N)CCCCN)C(=O)C[C@@H](N)Cc1ccccc1,HIV-1 TAR RNA,,,concentration not given,,heat capacity change ΔCp,-1.85 ± 0.14 kJ/mol/K
COc1cccc(OC)c1C(=O)N1CCN(Cc2ccccn2)CC1,MAPK14,enzyme activity,,,,ligand efficiency,0.15
NC(=O)C1CCNC(=O)C(CCCNC(=O)c2cnccn2)NC(=O)C(CC2CCCCC2)NC(=O)C(CC=Cc2ccccc2)NC(=O)C=CC(=O)N1 (stereo not drawn),MAPK14,DNA-templated library selection,,one selection round,,enrichment factor,1.4
CC(=O)N[C@@H](Cc1c[nH]c2ccccc12)C(=O)N[C@@H](Cc1c[nH]c2ccccc12)C(=O)N[C@@H](Cc1c[nH]c2ccccc12)C(=O)N[C@@H](Cc1c[nH]c2ccccc12)C(=O)N[C@@H](Cc1c[nH]c2ccccc12)C(=O)N[C@@H](Cc1c[nH]c2ccccc12)C(=O)NCCCC[C@@H]1NC(=O)[C@H](CCCNC(=N)N)NC(=O)[C@H](CCCNC(=N)N)NC(=O)[C@H](CCCNC(=N)N)NC(=O)[C@H](CCCNC(=N)N)NC(=O)[C@H](CCCNC(=N)N)NC(=O)[C@H](CCCNC(=N)N)NC1=O,MAPK14,"kinase activity, Reaction Biology radiometric",,"concentration not given, with: ATP 200 µM",baseline: DMSO,remaining activity,51.4%
CC(=O)NCCN(CC(=O)NCCN(CC(=O)NCCN(CC(=O)NCCC(N)=O)C(=O)C[C@@H](N)CCCCN)C(=O)C[C@@H](N)Cc1ccccc1)C(=O)C[C@@H](N)Cc1ccccc1,HIV-1 TAR RNA,,,extrapolated to 1 M KCl,,non-electrostatic ΔG°,-32.3 ± 0.4 kJ/mol
NC[C@@H]1O[C@H](O[C@H]2[C@@H](O)[C@H](O[C@@H]3[C@@H](O)[C@H](N)C[C@H](N)[C@H]3O[C@H]3O[C@H](CN)[C@@H](O)[C@H](O)[C@H]3N)O[C@@H]2CO)[C@H](N)[C@@H](O)[C@@H]1O,"T2, RNA aptamer",UV melting,,"1 µM RNA, 10 µM molecule, pH 6.8, NaCl 100 mM",,melting temperature change,21.3 °C
O=C(Nc1ccc(C(=O)Nc2ccc(C(=O)Nc3ccc(S(=O)(=O)O)c4cc(S(=O)(=O)O)cc(S(=O)(=O)O)c34)cc2)cc1)Nc1ccc(C(=O)Nc2ccc(C(=O)Nc3ccc(S(=O)(=O)O)c4cc(S(=O)(=O)O)cc(S(=O)(=O)O)c34)cc2)cc1,"Neutrophil elastase (ELANE, Homo sapiens, UniProt P08246)","enzyme activity, inhibitor, chromogenic substrate hydrolysis",,"pH 7.4, 37 °C, 100 mM NaCl, with: substrate S-1384",,maximal inhibition,105.4 ± 1%
COc1cc(C(=O)NC2CCC(N3CCN(CC4CCC5(CCCC5)C4)CC3)CC2)c(F)cc1Nc1ncc2c(n1)N(C1CCCC1(F)F)CC(F)(F)C(=O)N2C (stereo not drawn),"Serine/threonine-protein kinase pim-1 (PIM1, Homo sapiens, UniProt P11309)","cell-free assay, TR-FRET",,10 µM,,inhibition,0.32%
CCCCCCCC(=O)Nc1ccc(N(C)C)nc1C,"Liver carboxylesterase 1 (CES1, Homo sapiens, UniProt P23141)",substrate,,"50 µM, pH 8, 37 °C, enzyme purity 25%",,specific activity,54 pmol/min/µg
COc1cc(OC)c2c(c1)C(=O)c1cc3oc(=O)cc(C)c3c(O)c1C2=O,mushroom tyrosinase,enzyme activity,,"100 µg/mL, with: L-DOPA",,inhibition,63.86 ± 0.36%
CC[C@H](C)[C@H](NC(=O)[C@H](CCC(=O)O)NC(=O)[C@H](CO)NC(=O)[C@@H](NC(=O)[C@@H](N)CO)C(C)C)C(=O)N[C@@H](CCC(N)=O)C(=O)N[C@@H](CC(C)C)C(=O)N[C@@H](CCSC)C(=O)N[C@@H](Cc1c[nH]cn1)C(=O)N[C@@H](CC(N)=O)C(=O)N[C@@H](CC(C)C)C(=O)NCC(=O)N[C@@H](CCCCN)C(=O)N[C@@H](Cc1c[nH]cn1)C(=O)N[C@@H](CC(C)C)C(=O)N[C@@H](CC(N)=O)C(=O)N[C@@H](CO)C(=O)N[C@@H](CCSC)C(=O)N[C@@H](CCC(=O)O)C(=O)N[C@@H](CCCNC(=N)N)C(=O)N[C@H](C(=O)N[C@@H](CCC(=O)O)C(=O)N[C@@H](Cc1c[nH]c2ccccc12)C(=O)N[C@@H](CC(C)C)C(=O)N[C@@H](CCCNC(=N)N)C(=O)N[C@@H](CCCCN)C(=O)N[C@@H](CCCCN)C(=O)N[C@@H](CC(C)C)C(=O)N[C@@H](CCC(N)=O)C(=O)N[C@@H](CC(=O)O)C(=O)N[C@H](C(=O)N[C@@H](Cc1c[nH]cn1)C(=O)N[C@@H](CCCCNC(=O)c1ccc2c(c1)C1(OC2=O)c2ccc(N(C)C)cc2Oc2cc(N(C)C)ccc21)C(=O)N[C@@H](Cc1ccccc1)C(N)=O)C(C)C)C(C)C,"Parathyroid hormone/parathyroid hormone-related peptide receptor (PTH1R, Homo sapiens, UniProt Q03431)","binding, NanoBRET",HEK293,,,koff,0.0043 ± 0.002 s⁻¹

# Excerpt of the above:
Structure (SMILES),target,assay,test system,conditions,how to read,quantity,result
NC(=O)C1CCNC(=O)C(CCCNC(=O)c2cnccn2)NC(=O)C(CC2CCCCC2)NC(=O)C(CC=Cc2ccccc2)NC(=O)C=CC(=O)N1 (stereo not drawn),MAPK14,DNA-templated library selection,,one selection round,,enrichment factor,1.4
